Results from different studies.
Parts stem from different laboratories: compare values within a part only.

Block 1
Target: Ras GTPase-activating protein-binding protein 1, C-terminal RGG region (G3BP1, Homo sapiens, UniProt Q13283)
Chain of UniProt Q13283 (whole entry, looked up): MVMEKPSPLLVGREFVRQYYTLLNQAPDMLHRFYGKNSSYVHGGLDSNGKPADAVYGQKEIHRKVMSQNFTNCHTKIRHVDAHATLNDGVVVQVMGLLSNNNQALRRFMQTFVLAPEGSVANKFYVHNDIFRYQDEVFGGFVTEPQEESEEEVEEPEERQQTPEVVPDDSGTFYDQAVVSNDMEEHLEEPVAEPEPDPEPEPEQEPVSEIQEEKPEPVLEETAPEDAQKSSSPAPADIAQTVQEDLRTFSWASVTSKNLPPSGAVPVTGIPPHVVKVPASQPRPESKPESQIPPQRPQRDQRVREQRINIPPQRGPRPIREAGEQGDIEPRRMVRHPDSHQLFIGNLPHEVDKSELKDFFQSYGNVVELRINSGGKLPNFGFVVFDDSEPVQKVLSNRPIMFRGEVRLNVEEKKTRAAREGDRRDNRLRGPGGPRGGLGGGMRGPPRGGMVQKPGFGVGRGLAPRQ
Method: RNA Bind-n-Seq
Form: RNA
Matrix: in vitro
Tested at: 1 µM
Notes: whole 134-nt RNA, ends assumed
With: 150 mM KCl
Reference: input library
Reading: higher = stronger binding
Quantity: log2 enrichment
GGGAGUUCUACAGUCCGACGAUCACCAUGCAGGUGGGCAUCUUUGGGAAGAGGGGCAAGGGGGGGAUAGGGAGGGGGGUAACACUUUGGGAACAGGUGGUCCCAGGUCGUUUCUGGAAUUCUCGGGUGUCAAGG: -1.58
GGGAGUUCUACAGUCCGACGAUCCCUGUGCUACACAUCGUAUGUACCGAAUCGGGGAGGGGAAAAAAAGGGGAAAAAAAGGGGAAAGUAUUAUGUUACGCCGUUCGGAUCUGCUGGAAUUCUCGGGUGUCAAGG: -0.0976
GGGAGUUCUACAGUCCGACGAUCAGUCCUGUGCUACACAUCGUAUGUACCGAAUCGGGGAAAAAGGAAAAAGGAAAAAGGAAAGUAUUAUGUUACGCCGUUCGGAUCUGCACUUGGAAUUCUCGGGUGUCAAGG: -1.96
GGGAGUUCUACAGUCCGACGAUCUCCUGUGCUACACAUCGUAUGUACCGAAUCAAACCCCCCCAAAUUUAAACCCCCCCAAAAAAGUAUUAUGUUACGCCGUUCGGAUCUGCAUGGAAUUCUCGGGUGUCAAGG: 0.475
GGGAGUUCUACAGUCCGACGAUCAAUUCUCAUUUCUCGACAUAAAGCCUUGUCUAAAGUGAGAUGUUUUCCAGGUCAUACAUAGGUUUCUCCCUGGGGUAAUUGGAAGUUCUUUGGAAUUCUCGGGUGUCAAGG: -1.95
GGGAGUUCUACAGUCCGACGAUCACCAUGCAGGUGGGCAUCUUUGGGAUGUGGGGCAAGGGGGGGAUAGGGAGGGGGGUAACACUUUGGGAACAGGUGGUCCCAGGUCGUUUCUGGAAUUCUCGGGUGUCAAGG: -1.14
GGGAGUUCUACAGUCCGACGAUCUAACUUUAGAGGAGGAUCUGAUGUAUAUGGCAGUGGACGUGGAUUUGGGGAUGGCUAUAAUGGGUAUGGAGGAGGACCUGGAGGUGGCAAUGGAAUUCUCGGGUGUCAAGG: -1.48
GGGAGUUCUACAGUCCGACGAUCUCCUGUGCUACACAUCGUAUGUACCGAAUCGGGAAAAAGGGAAAAAGGGGAAAAAGGGGAAAGUAUUAUGUUACGCCGUUCGGAUCUGCAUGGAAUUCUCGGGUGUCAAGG: -0.269
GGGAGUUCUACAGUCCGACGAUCGCUUUGCCUUCACUUAUUUCUUUGCUUUUUAAAAACUAUUUGUAAUGUAAUUUUAAUGCAUUUUUUACAGGCCCAGUAAUGGUUAAAUACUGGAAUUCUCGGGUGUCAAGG: -0.913

Block 2
Target: Histone acetyltransferase KAT6A, winged helix 1, GST fusion (KAT6A, Homo sapiens, UniProt Q92794, residues 1-85)
Method: protein binding microarray
Form: double-stranded DNA, one strand shown
Matrix: in vitro
Tested at: not given
Notes: 8-mer, flanks averaged, mean of 2 arrays, mostly near background
Reference: not given
Reading: higher = stronger binding
Quantity: E-score
Target sequence (chain): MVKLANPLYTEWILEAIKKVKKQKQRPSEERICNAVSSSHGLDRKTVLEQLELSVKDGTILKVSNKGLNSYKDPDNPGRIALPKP
CCGGATGC: 0.127
GCTGATTA: 0.0569
CGGCGTCA: 0.335
AGGTTACA: 0.018
AACGAGGC: -0.111
AAACATAG: -0.176
GCCTGCGA: -0.108
CGCAAGCC: 0.214
CAATGCCC: 0.0703
CCAGGGCG: 0.165
ACATTCAT: -0.266
CTTAGGAA: -0.206
GGTGAAAA: -0.0577
AGATAATC: -0.0249
CGTCTTGC: 0.0972
ACTTATTA: -0.13
AAAGTGGC: -0.00944
ACACTACG: 0.107
CGTCTCAA: -0.0185

Block 3
Target: Sal-like protein 4, full length isoform A (SALL4, Homo sapiens, UniProt Q9UJQ4, residues 1-1053)
Chain of UniProt Q9UJQ4 (whole entry, looked up): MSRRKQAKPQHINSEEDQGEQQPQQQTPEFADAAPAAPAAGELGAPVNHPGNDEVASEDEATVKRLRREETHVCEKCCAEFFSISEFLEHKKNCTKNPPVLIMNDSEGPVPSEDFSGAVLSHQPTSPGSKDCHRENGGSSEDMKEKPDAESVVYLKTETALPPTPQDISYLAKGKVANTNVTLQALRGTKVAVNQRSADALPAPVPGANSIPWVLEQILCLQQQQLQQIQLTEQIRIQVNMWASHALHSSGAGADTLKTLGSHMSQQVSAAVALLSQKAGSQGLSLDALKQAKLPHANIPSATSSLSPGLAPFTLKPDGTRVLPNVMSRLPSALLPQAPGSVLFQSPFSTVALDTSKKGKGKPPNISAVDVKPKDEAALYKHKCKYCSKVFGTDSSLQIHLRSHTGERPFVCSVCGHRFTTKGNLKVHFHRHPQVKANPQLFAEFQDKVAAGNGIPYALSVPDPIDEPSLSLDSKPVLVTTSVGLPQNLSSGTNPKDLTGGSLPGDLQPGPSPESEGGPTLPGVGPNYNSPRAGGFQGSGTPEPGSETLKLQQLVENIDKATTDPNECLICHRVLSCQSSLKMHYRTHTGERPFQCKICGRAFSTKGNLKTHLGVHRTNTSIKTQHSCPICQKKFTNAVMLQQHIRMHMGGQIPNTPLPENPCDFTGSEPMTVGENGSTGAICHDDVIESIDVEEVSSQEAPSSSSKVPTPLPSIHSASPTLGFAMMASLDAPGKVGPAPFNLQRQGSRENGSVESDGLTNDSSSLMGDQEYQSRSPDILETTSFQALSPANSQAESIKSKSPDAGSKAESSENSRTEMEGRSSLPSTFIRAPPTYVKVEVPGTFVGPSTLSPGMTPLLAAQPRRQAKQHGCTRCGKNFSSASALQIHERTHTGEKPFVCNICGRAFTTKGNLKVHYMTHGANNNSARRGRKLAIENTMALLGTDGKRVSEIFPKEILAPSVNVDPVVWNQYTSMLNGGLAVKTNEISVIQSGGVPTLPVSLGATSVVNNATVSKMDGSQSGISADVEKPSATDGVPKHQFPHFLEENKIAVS
Method: universal PBM
Form: double-stranded DNA, one strand shown
Matrix: in vitro
Tested at: 600 nM
Notes: 8-mer, flanks averaged, mean of replicates
Reading: higher = stronger binding
Quantity: E-score
CACTTCCC: -0.23
CACTAGAC: -0.022
TGATTAAA: 0.304
CATGGGAC: -0.192
CAGAAATG: 0.0676
CCGTTTGA: -0.155
ATTACAAG: 0.341
AAACCTTG: 0.0254
CATTGAAG: 0.0555
GAGCTATC: -0.0741
AGGTGACC: -0.209
AACTCATG: 0.169
AATACCAG: 0.0836
CGTTACTC: -0.0643
ACGACGCG: -0.103
AAGAACTT: 0.0964
AATCGTCG: -0.103
CACGCGAA: -0.0496
GAGTGTAA: 0.13
GGCGCAAC: -0.218
CTTATTGC: 0.0352
CGCCCAGC: -0.273
ACTGCTTC: -0.166

Block 4
Target: TAR DNA-binding protein 43, full length, His tag (TARDBP, Homo sapiens, UniProt Q13148, residues 1-414)
Method: RNA Bind-n-Seq
Form: RNA
Matrix: in vitro
Tested at: 20 nM
Notes: 6-mer, flanks averaged, single round
With: 150 mM KCl
Reference: input library
Reading: higher = stronger binding
Quantity: 6-mer enrichment (R)
GUCACA: 0.692
GUAUGU: 1.3
GACCCG: 0.855
CGUCCG: 0.801
UAUCGC: 0.593
GGCAAC: 1.12
AUCCGU: 0.579
ACUAAA: 0.637
AAUCAC: 0.585
CUCUCG: 0.585
GGAGCA: 1.66
CCUGCA: 0.659
UUAAGG: 0.903
CUUUCC: 0.571
UAAAAG: 0.75
ACUAUA: 0.629
CGUGUC: 0.758
CUUGAA: 0.685
GCCAUG: 0.951
GAAGUC: 0.761
GUGUUC: 0.786
CUAAAA: 0.638
CCACGA: 0.684
AUUUGA: 0.638
UCCGUG: 0.812

Block 5
Target: Interferon regulatory factor 7, full length, phosphomimetic (IRF7, Homo sapiens, UniProt Q92985, residues 1-503, S101K/S471D/S472D/S475D/S476D/S477D/S483D/S484D/S487D)
Method: protein-binding microarray
Form: double-stranded DNA, one strand shown
Matrix: in vitro
Tested at: 250 nM
Notes: 60-bp whole probe
With: salmon DNA 0.4 mg/ml
Reference: random background probes
Reading: higher = stronger binding
Quantity: log fluorescence
All sequences stand within: GCCTAGCAC … GTCTTGATTCGCTTGACGCTGCTG
Residues (chain): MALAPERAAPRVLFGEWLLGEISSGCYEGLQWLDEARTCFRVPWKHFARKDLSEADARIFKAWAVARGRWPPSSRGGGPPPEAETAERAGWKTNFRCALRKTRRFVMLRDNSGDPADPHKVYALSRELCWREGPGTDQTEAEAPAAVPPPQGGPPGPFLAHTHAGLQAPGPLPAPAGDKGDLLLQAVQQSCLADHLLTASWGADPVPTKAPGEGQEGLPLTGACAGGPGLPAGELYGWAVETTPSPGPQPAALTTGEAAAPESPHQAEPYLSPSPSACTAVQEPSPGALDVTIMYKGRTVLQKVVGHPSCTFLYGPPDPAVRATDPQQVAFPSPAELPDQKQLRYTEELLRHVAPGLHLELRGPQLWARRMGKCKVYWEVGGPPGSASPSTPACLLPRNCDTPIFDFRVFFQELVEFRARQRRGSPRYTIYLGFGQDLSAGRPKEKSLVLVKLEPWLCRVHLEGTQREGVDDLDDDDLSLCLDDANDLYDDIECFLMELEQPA
GACGGTTTGGGTCTCGGGACGTGCTAG: 0.31 z-score
TTTTTTTTCCTAATTGAACCGTGCTAG: 1.57 z-score
TCCAAATTGTCTCTGTCCCTGTGCTAG: -0.263 z-score
GACGGACTGGCCTTTCGGGACGTGCTA: -1.05 z-score
CCGGGGGGCACAGGGTGAGGGTGCTAG: 3.24 z-score
GACGGTCTCGGTATCAGGACGTGCTAG: 1.41 z-score
TTAGGGATCGGGTTTCGGTTAGTGCTA: 6.71 z-score
AATTAATAACTCGTAGGATCGTGCTAG: -0.0805 z-score
TCATTGATGGCTCTCTGACTGTGCTAG: -0.149 z-score
GACGAACTGAGTATCGAGAAGTGCTAG: -0.101 z-score
TCATTTCTCAACCTCCAACTGTGCTAG: 1.84 z-score
GACGGTTTCGTTCTCCTGACGTGCTAG: 11 z-score
TCATTTTTTTTTTCCCTACTGTGCTAG: 1.42 z-score
TTAGGTCTGCTACTGCTTTAGTGCTAG: -0.503 z-score
TCAACTTGTCTTTTCACACTGTGCTAG: 0.441 z-score
TCCATTTCTGTTTTTGCTTTGTGCTAG: 2.12 z-score
TTAGGAATGGGTATCGGTTAGTGCTAG: 0.75 z-score
GATGATTTCGGGTATCGAGACGTGCTA: 0.715 z-score
AACCGCACAGAACTAAAACAGTGCTAG: 0.0788 z-score

Excerpt of the above (block 5):
GACGGACTGGCCTTTCGGGACGTGCTA: -1.05 z-score
CCGGGGGGCACAGGGTGAGGGTGCTAG: 3.24 z-score
GACGGTCTCGGTATCAGGACGTGCTAG: 1.41 z-score
TTAGGGATCGGGTTTCGGTTAGTGCTA: 6.71 z-score
AATTAATAACTCGTAGGATCGTGCTAG: -0.0805 z-score
TCATTGATGGCTCTCTGACTGTGCTAG: -0.149 z-score
GACGAACTGAGTATCGAGAAGTGCTAG: -0.101 z-score
TCATTTCTCAACCTCCAACTGTGCTAG: 1.84 z-score
GACGGTTTCGTTCTCCTGACGTGCTAG: 11 z-score
TCATTTTTTTTTTCCCTACTGTGCTAG: 1.42 z-score
TTAGGTCTGCTACTGCTTTAGTGCTAG: -0.503 z-score
TCAACTTGTCTTTTCACACTGTGCTAG: 0.441 z-score
TCCATTTCTGTTTTTGCTTTGTGCTAG: 2.12 z-score
TTAGGAATGGGTATCGGTTAGTGCTAG: 0.75 z-score
GATGATTTCGGGTATCGAGACGTGCTA: 0.715 z-score
